Experimental data gathered from unrelated publications.
Protocols differ between the studies behind these lines. Several values in a cell are separate wells, animals, samples, runs or records. ± marks the error that the study gave.
KCNT1: Potassium channel subfamily T member 1 (KCNT1, Homo sapiens, UniProt Q5JUK3)
Lysophospholipase-like protein 1: Lysophospholipase-like protein 1 (Mus musculus, UniProt Q3UFF7)
Trace amine-associated receptor 1 M268T/N287Y: Trace amine-associated receptor 1 (Rattus norvegicus, UniProt Q923Y9, M268T/N287Y)
GLP1R: Glucagon-like peptide 1 receptor (GLP1R, Homo sapiens, UniProt P43220)
ALDH1A3: Retinaldehyde dehydrogenase 3 (ALDH1A3, Homo sapiens, UniProt P47895)
LDHA: L-lactate dehydrogenase A chain (LDHA, Homo sapiens, UniProt P00338)
GRM4: Metabotropic glutamate receptor 4 (GRM4, Homo sapiens, UniProt Q14833)
FPR2: N-formyl peptide receptor 2 (FPR2, Homo sapiens, UniProt P25090)

The chains behind the UniProt entries cited, without tags or fusion partners. Where a name states a change or a piece, a line headed by the entry shows the natural chain unless it says otherwise. Residues count along the entry.
UniProt Q3UFF7, whole entry: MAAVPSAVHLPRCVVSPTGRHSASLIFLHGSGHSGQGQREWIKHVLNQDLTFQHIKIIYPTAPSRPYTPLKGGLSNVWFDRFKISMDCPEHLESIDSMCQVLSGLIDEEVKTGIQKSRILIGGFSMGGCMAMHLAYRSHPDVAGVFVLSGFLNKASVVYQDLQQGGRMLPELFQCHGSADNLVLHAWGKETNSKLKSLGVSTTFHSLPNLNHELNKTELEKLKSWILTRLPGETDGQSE
UniProt P43220, whole entry, looked up: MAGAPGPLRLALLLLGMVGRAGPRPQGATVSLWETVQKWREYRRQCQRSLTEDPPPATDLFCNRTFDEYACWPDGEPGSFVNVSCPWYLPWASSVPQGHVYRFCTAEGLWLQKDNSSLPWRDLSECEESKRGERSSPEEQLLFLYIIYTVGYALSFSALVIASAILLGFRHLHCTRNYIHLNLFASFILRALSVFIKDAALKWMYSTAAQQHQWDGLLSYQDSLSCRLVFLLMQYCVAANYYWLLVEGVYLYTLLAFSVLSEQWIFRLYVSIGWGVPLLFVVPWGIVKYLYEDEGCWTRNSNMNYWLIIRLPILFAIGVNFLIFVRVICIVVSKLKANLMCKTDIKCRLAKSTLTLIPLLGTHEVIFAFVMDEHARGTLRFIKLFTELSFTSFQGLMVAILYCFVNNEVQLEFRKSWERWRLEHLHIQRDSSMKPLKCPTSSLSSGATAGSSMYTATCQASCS
UniProt P43220, 24-463 limits assumed: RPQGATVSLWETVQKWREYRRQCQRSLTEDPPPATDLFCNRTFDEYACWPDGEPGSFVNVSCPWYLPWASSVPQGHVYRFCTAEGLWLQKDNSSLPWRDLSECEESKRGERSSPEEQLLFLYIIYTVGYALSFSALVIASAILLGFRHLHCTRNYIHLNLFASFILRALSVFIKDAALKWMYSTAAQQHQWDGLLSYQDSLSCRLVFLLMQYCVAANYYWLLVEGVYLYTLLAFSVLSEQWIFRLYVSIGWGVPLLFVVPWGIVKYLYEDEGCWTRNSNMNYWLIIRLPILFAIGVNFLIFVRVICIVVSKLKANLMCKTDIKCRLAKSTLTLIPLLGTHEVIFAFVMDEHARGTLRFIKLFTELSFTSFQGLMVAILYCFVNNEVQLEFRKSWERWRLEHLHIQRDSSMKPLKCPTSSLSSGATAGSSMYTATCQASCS
UniProt Q14833, 33-912 limits assumed: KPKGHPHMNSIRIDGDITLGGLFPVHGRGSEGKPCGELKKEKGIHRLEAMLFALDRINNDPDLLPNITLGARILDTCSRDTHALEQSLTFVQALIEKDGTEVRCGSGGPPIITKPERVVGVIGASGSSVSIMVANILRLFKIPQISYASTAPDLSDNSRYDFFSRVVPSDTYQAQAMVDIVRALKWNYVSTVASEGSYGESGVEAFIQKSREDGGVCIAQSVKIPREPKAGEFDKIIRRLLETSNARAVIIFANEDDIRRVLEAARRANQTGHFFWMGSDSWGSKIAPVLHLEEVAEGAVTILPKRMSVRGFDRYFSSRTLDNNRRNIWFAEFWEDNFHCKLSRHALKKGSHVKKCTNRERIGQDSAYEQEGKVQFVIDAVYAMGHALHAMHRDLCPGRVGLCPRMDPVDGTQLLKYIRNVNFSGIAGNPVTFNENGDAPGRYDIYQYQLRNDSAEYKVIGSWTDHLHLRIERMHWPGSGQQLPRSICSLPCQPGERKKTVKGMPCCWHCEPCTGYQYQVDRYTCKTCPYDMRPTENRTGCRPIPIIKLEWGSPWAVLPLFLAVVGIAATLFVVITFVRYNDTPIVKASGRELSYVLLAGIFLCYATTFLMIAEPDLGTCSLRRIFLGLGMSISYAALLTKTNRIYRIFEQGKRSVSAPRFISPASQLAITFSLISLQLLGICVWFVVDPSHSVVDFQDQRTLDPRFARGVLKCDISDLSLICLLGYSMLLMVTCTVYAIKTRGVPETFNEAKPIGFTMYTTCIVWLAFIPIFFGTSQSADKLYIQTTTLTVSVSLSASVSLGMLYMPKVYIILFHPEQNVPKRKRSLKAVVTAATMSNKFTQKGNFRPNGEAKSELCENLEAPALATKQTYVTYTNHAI
UniProt Q923Y8, whole entry: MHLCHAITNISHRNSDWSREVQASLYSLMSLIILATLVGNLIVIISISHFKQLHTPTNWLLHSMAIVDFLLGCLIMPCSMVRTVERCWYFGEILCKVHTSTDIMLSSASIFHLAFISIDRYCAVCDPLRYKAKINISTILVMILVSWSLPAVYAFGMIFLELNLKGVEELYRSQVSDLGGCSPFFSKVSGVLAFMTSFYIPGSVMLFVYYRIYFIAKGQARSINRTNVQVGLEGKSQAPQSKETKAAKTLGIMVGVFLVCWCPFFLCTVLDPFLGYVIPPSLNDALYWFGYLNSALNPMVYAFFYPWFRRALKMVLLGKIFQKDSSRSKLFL
UniProt Q14416, 19-872 limits assumed: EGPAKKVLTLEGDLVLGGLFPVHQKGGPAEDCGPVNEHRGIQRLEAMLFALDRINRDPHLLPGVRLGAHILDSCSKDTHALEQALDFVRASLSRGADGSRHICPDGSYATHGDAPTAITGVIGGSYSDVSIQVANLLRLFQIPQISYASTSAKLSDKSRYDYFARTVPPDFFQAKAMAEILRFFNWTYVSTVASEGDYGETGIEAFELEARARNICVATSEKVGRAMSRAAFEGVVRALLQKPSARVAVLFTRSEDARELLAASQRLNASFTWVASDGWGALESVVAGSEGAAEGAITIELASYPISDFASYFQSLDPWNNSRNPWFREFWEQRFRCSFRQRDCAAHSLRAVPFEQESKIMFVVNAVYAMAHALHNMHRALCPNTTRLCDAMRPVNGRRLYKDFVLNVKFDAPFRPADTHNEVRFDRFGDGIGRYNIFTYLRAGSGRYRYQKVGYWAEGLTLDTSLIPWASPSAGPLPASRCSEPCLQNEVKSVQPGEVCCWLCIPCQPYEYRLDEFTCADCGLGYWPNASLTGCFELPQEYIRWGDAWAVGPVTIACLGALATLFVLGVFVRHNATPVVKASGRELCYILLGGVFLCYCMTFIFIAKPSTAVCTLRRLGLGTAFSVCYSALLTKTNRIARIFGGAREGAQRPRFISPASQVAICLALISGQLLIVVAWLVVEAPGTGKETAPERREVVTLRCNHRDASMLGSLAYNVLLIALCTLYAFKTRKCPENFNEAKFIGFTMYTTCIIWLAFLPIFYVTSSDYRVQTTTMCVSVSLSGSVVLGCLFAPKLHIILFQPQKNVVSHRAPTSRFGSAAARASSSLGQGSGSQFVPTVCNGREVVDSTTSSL
UniProt Q13547, whole entry: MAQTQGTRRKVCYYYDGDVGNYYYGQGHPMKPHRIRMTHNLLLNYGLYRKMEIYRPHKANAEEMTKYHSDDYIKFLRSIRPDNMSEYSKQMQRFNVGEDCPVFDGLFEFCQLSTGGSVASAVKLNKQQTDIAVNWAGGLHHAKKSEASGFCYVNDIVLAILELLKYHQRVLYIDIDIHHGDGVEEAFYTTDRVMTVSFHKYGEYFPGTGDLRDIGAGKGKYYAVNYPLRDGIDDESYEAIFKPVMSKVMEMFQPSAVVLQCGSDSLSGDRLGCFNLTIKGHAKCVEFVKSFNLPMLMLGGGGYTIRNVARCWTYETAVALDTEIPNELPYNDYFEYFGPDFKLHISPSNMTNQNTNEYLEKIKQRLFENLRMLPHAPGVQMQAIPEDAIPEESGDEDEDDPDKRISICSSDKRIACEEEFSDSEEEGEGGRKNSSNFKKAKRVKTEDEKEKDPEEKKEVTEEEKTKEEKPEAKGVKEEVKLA
UniProt O60603, 21-784 limits assumed: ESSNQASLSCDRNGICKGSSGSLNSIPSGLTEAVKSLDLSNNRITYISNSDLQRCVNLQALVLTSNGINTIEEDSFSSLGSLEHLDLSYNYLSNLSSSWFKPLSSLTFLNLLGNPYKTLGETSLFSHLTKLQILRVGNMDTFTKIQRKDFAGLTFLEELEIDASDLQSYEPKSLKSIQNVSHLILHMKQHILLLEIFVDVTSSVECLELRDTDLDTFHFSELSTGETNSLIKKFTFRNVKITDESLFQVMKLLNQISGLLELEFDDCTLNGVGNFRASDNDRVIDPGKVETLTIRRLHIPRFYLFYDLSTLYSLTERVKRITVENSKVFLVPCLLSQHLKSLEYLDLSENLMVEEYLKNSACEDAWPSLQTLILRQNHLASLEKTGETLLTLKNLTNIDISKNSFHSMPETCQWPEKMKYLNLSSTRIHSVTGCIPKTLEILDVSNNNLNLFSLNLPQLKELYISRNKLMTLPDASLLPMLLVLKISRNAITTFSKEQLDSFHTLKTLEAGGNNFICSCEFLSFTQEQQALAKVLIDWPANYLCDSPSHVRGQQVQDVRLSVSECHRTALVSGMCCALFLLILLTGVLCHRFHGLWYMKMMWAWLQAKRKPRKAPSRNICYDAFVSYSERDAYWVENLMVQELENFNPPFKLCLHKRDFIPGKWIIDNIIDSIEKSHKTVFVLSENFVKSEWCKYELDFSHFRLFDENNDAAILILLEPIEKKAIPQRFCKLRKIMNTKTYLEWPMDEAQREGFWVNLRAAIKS
UniProt Q02750, whole entry: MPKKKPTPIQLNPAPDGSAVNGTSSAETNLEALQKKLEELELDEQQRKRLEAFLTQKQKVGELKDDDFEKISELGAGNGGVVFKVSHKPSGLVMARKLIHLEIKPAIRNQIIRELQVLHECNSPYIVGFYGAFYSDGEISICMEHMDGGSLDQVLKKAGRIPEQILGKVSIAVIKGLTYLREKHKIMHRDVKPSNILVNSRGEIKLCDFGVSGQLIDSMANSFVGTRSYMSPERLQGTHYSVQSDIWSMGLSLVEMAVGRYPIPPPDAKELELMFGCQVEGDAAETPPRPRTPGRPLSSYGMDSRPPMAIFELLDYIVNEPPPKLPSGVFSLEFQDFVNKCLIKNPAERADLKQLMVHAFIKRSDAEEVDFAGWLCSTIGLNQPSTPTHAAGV
UniProt Q16281, whole entry: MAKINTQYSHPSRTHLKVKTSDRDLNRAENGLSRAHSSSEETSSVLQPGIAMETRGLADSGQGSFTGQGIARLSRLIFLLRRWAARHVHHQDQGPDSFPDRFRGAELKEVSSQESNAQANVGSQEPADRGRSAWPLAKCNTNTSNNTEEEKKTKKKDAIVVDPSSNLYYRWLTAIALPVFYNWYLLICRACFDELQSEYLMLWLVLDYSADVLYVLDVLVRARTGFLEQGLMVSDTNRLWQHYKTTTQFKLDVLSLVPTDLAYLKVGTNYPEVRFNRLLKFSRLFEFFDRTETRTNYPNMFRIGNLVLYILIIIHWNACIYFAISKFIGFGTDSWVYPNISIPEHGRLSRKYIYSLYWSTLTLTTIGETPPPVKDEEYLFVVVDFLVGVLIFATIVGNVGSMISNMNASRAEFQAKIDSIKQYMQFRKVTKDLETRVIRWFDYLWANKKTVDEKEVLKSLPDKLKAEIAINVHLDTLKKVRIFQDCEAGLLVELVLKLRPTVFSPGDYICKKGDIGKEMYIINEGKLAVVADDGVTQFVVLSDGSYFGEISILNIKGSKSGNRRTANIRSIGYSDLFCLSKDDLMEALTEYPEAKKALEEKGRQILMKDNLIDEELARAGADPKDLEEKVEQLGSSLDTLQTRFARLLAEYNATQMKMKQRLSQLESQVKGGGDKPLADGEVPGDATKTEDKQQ
UniProt Q9NQW8, whole entry: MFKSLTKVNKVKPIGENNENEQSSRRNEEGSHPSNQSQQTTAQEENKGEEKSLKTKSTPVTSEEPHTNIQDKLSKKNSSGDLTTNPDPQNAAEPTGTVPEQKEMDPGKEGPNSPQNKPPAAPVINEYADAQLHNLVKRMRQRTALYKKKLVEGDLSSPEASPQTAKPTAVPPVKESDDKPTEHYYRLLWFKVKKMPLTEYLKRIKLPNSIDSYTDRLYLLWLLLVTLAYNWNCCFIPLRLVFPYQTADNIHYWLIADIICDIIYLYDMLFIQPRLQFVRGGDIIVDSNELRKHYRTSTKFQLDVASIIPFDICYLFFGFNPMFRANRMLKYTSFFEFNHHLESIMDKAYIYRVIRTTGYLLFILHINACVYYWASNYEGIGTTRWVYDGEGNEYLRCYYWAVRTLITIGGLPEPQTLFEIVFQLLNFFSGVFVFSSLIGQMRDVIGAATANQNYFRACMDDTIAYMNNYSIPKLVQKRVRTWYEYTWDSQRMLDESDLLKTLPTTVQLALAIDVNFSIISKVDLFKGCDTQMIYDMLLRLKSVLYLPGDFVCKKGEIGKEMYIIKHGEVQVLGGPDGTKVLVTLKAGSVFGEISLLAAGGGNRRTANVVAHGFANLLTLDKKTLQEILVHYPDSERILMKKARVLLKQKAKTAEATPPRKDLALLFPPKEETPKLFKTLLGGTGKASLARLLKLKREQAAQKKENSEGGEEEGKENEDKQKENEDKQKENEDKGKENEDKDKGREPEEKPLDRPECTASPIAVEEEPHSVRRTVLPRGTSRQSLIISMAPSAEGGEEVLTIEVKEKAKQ

SMILES	target	assay	test system	conditions	EC50
COc1ccc2ncn(CC3CCN(S(=O)(=O)c4cccc(C(F)(F)F)c4)CC3)c2c1	KCNT1	thallium flux, activator	HEK293 expressing KCNT1		1600 nM
Nc1nc(SCc2ccc(Cl)cc2)nn1S(=O)(=O)c1cccc([N+](=O)[O-])c1	Lysophospholipase-like protein 1	enzyme activity, activator, gel-based ABPP, FP-rhodamine	purified protein		170 nM
CCOc1ccc2nc(SCC(=O)Nc3ccc(Cl)cc3)[nH]c2c1	fMet-Leu-Phe receptor (FPR1, Homo sapiens, UniProt P21462)	calcium mobilization, agonist	HL-60 transfected with FPR1		8100 nM
NCC(c1ccccc1)c1cccc(Oc2ccccc2)c1 (stereo not shown)	Trace amine-associated receptor 1 M268T/N287Y	cAMP production, agonist		double mutant	> 10000 nM
Cc1[nH]c2cc(Cl)cc(Cl)c2c1CCn1cc(CCN)nn1	GLP1R	cAMP accumulation, positive allosteric modulator, HTRF	CHO-K1 expressing GLP1R	crude reaction product, added: GLP-1(9-36) at EC20	1080 nM
COc1cccc(N2CCN(CCCCn3ncc(=O)n(C)c3=O)CC2)c1	5-hydroxytryptamine receptor 1A (HTR1A, Homo sapiens, UniProt P08908)	agonist	CHO cell membranes		0.7 nM
NCC(c1ccc(O)cc1)c1ccc(Oc2ccc(O)cc2)c(I)c1 (stereo not shown)	Trace amine-associated receptor 1 (Taar1, Mus musculus, UniProt Q923Y8)	cAMP production, agonist	HEK293		> 10000 nM
Cc1ccc(S(=O)(=O)OCCc2cn(CCc3c(C)[nH]c4cc(Cl)cc(Cl)c34)nn2)cc1	GLP1R	cAMP accumulation, positive allosteric modulator, HTRF	CHO-K1 expressing GLP1R	purified compound, added: GLP-1(9-36) at EC20	950 ± 203 nM
CCCn1c(NCc2cccc(OC)c2O)nc2ccccc21	ALDH1A3	enzyme activity, inhibitor, NADH absorbance 340 nm		pH 7.5, 25 °C, 200 µM NAD+, added: 100 µM propionaldehyde	620 ± 67 nM
O=C(O)c1csc(-n2nc(-c3ccccc3)cc2C(F)(F)F)n1	LDHA	thermal stabilisation, CETSA	HEK293	3.5 min, 71 °C	> 50000 nM
Oc1ccc(N=Cc2c(O)ccc3ccccc23)cc1	Cyclin-dependent kinase 2 (CDK2, Homo sapiens, UniProt P24941)	ANS displacement		ATP site blocked, added: staurosporine 5 µM	56000 ± 8000 nM
O=C(Nc1ccc(F)cc1)C12CC1/C(=N\O)c1cc(Cl)ccc1O2 (stereo not shown)	GRM4	calcium mobilization, positive allosteric modulator	CHO hmGluR4/Gqi5	added: glutamate EC20	3400 nM and ~3000 nM
NC(=O)c1cccc(S(=O)(=O)n2nc(CCCc3ccc(Cl)cc3)nc2N)c1	Lysophospholipase-like protein 1	enzyme activity, activator, gel-based ABPP, FP-rhodamine	purified protein		> 20000 nM
O=C(Nc1ccc([N+](=O)[O-])cc1)N[C@@H](Cc1c[nH]c2ccccc12)C(=O)NCC1(c2ccccc2)CCCCC1	FPR2	Ca2+ mobilization, agonist	HL-60 transfected with FPR2		700 ± 220 nM
Cc1[nH]c2cc(Cl)cc(Cl)c2c1CCn1cc(CNC(N)=O)nn1	GLP1R	cAMP accumulation, positive allosteric modulator, HTRF	CHO-K1 expressing GLP1R	purified compound, added: GLP-1(9-36) at EC20	822 ± 356 nM
COc1ccc(NC(=O)CN2CCCN(S(=O)(=O)c3ccc(F)c(F)c3)CC2)c(OC)c1	GRM4	calcium mobilization, positive allosteric modulator	CHO cells with Gqi5	added: glutamate EC20	> 10000 nM
COc1cccc(Cc2cc(C)nn(C(C(=O)Nc3ccc(Br)cc3)C(C)C)c2=O)c1 (racemic)	FPR2	calcium mobilization, agonist	HL-60 transfected with FPR2		6500 nM
CCc1ccc(NS(=O)(=O)c2cn(Cc3ccccn3)c3ncccc23)cc1	Cystic fibrosis transmembrane conductance regulator, W1282X (CFTR, Homo sapiens, UniProt P13569)	iodide influx, co-potentiator, YFP fluorescence	FRT expressing CFTR	added: ivacaftor	600 nM
CSc1cc(NC(=O)c2ccccn2)ccc1Cl	Metabotropic glutamate receptor 2 (GRM2, Homo sapiens, UniProt Q14416)	agonist			> 30000 nM
COc1ccccc1-c1cc(C(F)(F)F)nc(S(C)(=O)=O)n1	GLP1R	cAMP accumulation, positive allosteric modulator	HEK293T overexpressing target	added: GLP-1 at EC20	15000 ± 11000 nM
Nc1nc(NCCc2ccc(Cl)cc2)nn1S(=O)(=O)c1cccc(Cl)c1	Lysophospholipase-like protein 1	enzyme activity, activator, gel-based ABPP, FP-rhodamine	purified protein		> 20000 nM
O=C(CCCCCONC(=O)c1cc2ccccc2[nH]1)NO	Histone deacetylase 1 (HDAC1, Homo sapiens, UniProt Q13547)	enzyme activity			1 to 100 nM
N#Cc1ccc(-c2c(-c3ccncc3)nnn2CC(=O)Nc2ccc(-c3ccccc3)cn2)cc1	Protein-serine O-palmitoleoyltransferase porcupine (Mus musculus, UniProt Q9JJJ7)	Wnt signalling reporter, inhibitor	L-Wnt-STF		8 nM

SMILES	target	assay	test system	conditions	EC50
CC(C)(Cn1cc(-c2ccc(B(O)O)cc2)nn1)c1c[nH]c2ccccc12	GLP1R	cAMP accumulation, positive allosteric modulator, HTRF	CHO-K1 expressing GLP1R	crude reaction product, added: GLP-1(9-36) at EC20	769 nM
COc1ccc(NC(=O)CN2CCCN(S(=O)(=O)c3cc(C)ccc3C)CC2)c(OC)c1	GRM4	calcium mobilization, positive allosteric modulator	CHO cells with Gqi5	added: glutamate EC20	2700 ± 600 nM
CC(C)(Cn1cc(-c2ccc(CO)cc2)nn1)c1c[nH]c2ccccc12	GLP1R	cAMP accumulation, positive allosteric modulator, HTRF	CHO-K1 expressing GLP1R	purified compound, added: GLP-1(9-36) at EC20	795 ± 250 nM
O=C(CCl)Nc1ccc2c(Nc3ccccc3)ncnc2c1	Ephrin type-B receptor 3 (EPHB3, Homo sapiens, UniProt P54753)	EPHB3 autophosphorylation, inhibitor, immunoblot	HEK293, transfected	added: ephrin-B2	170 nM
C/C=C/c1cc(-c2nn(-c3nc(C(=O)O)cs3)c(CC3CC3)c2Cc2ccc(S(N)(=O)=O)c(F)c2)ccc1F	LDHA	thermal stabilisation, CETSA	HEK293	3.5 min, 71 °C	20 nM
O=C(O)CCNC(=O)c1ccc(NCc2cn(CCc3ccc4ccccc4c3)nn2)cc1	GLP1R	cAMP accumulation, positive allosteric modulator, HTRF	CHO-K1 expressing GLP1R	added: GLP-1 at EC20	6750 nM
Cc1nc(-c2ccc(OCC(C)C)c(C#N)c2)sc1C(=O)N(C)C	Grm2/Grm4 (Rattus norvegicus, UniProt P31421+P31423)	thallium flux, positive allosteric modulator	HEK293 GIRK	added: glutamate EC20	760 nM
NCCCCNC(=O)[C@H](Cc1ccc2ccccc2c1)NC(=O)N1CCc2ccccc2C1	Melanocortin receptor 5 (Mus musculus, UniProt P41149)	reporter gene, agonist, β-galactosidase reporter	HEK293 stably expressing Melanocortin receptor 5		> 100000 nM
COc1ccc(NC(=O)CN2CCCN(S(=O)(=O)c3ccc(F)cc3)CC2)c(OC)c1	GRM4	calcium mobilization, positive allosteric modulator	CHO cells with Gqi5	added: glutamate EC20	> 10000 nM
Cc1cc(NC(=O)c2cccc(NC(=O)C3=CC(C)(C)CCC3=O)c2)ccc1Nc1nccc(-c2cccnc2)n1	Mitogen-activated protein kinase 8 (MAPK8, Homo sapiens, UniProt P45983)	JNK1 binding, NanoBRET	HEK293 cells	2 h, added: tracer K-5	76 ± 30 nM
NCC(c1ccc(O)cc1)c1ccc(Oc2ccccc2)cc1 (stereo not shown)	Trace amine-associated receptor 1 M268T/N287Y	cAMP production, agonist		double mutant	~2000 nM
COc1ccc(NC(=O)CN2CCCN(S(=O)(=O)c3ccc(C)c(C)c3)CC2)c(OC)c1	GRM4	calcium mobilization, positive allosteric modulator	CHO cells with Gqi5	added: glutamate EC20	3200 ± 200 nM
Nc1nc(SCc2ccc(Cl)cc2)nn1S(=O)(=O)c1ccc2c(c1)CCC2	Lysophospholipase-like protein 1	enzyme activity, activator, gel-based ABPP, FP-rhodamine	purified protein		790 nM
NCCCCNC(=O)[C@H](Cc1ccc(I)cc1)NC(=O)N1CCc2ccccc2C1	Melanocyte-stimulating hormone receptor (Mc1r, Mus musculus, UniProt Q01727)	reporter gene, agonist, β-galactosidase reporter	HEK293 stably expressing Mc1r		25000 ± 2800 nM
Cc1[nH]c2cc(Cl)cc(Cl)c2c1CCn1cc(C2(O)COC2)nn1	GLP1R	cAMP accumulation, positive allosteric modulator, HTRF	CHO-K1 expressing GLP1R	crude reaction product, added: GLP-1(9-36) at EC20	394 nM
Nc1nc(NCCc2ccc(Cl)cc2)nn1S(=O)(=O)c1ccc2ncsc2c1	Lysophospholipase-like protein 1	enzyme activity, activator, gel-based ABPP, FP-rhodamine	purified protein		2100 nM
CCCn1c(NCc2cccc(F)c2O)nc2ccccc21	ALDH1A3	enzyme activity, inhibitor, NADH absorbance 340 nm		pH 7.5, 25 °C, 200 µM NAD+, added: 100 µM propionaldehyde	1300 ± 620 nM
CCCCCCCCCCCCCCCC(=O)OCCSC[C@H](NC(C)=O)C(=O)N[C@@H](CO)C(=O)OC	Toll-like receptor 2 (TLR2, Homo sapiens, UniProt O60603)	NF-κB reporter gene, agonist, SEAP reporter	HEK-Blue hTLR2 cells		0.66 nM
COc1cccc2ncn(CC3CCN(S(=O)(=O)c4cccc(C(F)(F)F)c4)CC3)c12	KCNT1	thallium flux, activator	HEK293 expressing KCNT1		6200 nM
Cc1[nH]c2cc(Cl)cc(Cl)c2c1CCn1cc(COCCOCCO)nn1	GLP1R	cAMP accumulation, positive allosteric modulator, HTRF	CHO-K1 expressing GLP1R	crude reaction product, added: GLP-1(9-36) at EC20	395 nM
Cc1c(=O)n(C)c(Nc2ccc(I)cc2F)c2c(=O)n(C3CC3)c(=O)n(-c3cccc(NC(=O)CCOCCOCCNC(=O)CCC4=[N+]5C(=Cc6ccc(-c7ccc[nH]7)n6[B-]5(F)F)C=C4)c3)c12	Dual specificity mitogen-activated protein kinase kinase 1, with BRAF (MAP2K1, Homo sapiens, UniProt Q02750)	binding, NanoBRET	HEK-293T	MEK1-NanoLuc with BRAF	178 ± 33 nM
O=C(NCCc1ccccc1)C12CC1/C(=N\O)c1ccccc1O2 (stereo not shown)	GRM4	calcium mobilization, positive allosteric modulator	CHO hmGluR4/Gqi5	added: glutamate EC20	> 5000 nM
CCCCCCCC(=O)OCC(COP(=O)(O)OC1C(O)C(O)C(OP(=O)(O)O)C(OP(=O)(O)O)C1O)OC(=O)CCCCCCC (stereo not shown)	CNGA3/CNGB3 (Homo sapiens, UniProt Q16281+Q9NQW8)	increase in cGMP K1/2, inside-out patch clamp		CNGA3/CNGB3 heteromer	3440 nM

Some of these lines once more:
SMILES	target	assay	test system	conditions	EC50
O=C(Nc1ccc([N+](=O)[O-])cc1)N[C@@H](Cc1c[nH]c2ccccc12)C(=O)NCC1(c2ccccc2)CCCCC1	FPR2	Ca2+ mobilization, agonist	HL-60 transfected with FPR2		700 ± 220 nM
Cc1[nH]c2cc(Cl)cc(Cl)c2c1CCn1cc(CNC(N)=O)nn1	GLP1R	cAMP accumulation, positive allosteric modulator, HTRF	CHO-K1 expressing GLP1R	purified compound, added: GLP-1(9-36) at EC20	822 ± 356 nM
COc1ccc(NC(=O)CN2CCCN(S(=O)(=O)c3ccc(F)c(F)c3)CC2)c(OC)c1	GRM4	calcium mobilization, positive allosteric modulator	CHO cells with Gqi5	added: glutamate EC20	> 10000 nM
